Measurements from different studies.
Each numbered part is a random draw from the data of one study; scales do not carry over between parts.

Sample 1 — technique: RNA Bind-n-Seq; form: RNA; sample: in vitro; tested at: 365 nM; baseline: no-protein control; direction: higher = stronger binding
Target: RNA binding protein fox-1 homolog 2, RRM domain, GST-SBP tag (RBFOX2, Homo sapiens, UniProt O43251-10, residues 100-194)
Notes: natural RNA segment, single round, ends assumed
Residues (chain): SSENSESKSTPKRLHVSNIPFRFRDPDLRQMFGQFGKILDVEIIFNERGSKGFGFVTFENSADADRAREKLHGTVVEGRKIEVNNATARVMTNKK
| Oligonucleotide | RBNS enrichment (R) |
| --- | --- |
| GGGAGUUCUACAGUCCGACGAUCAAAUAAAUUUCAUUUAUGAUUUUCUCAUCAACAUUUUCUUUGCUCUGUUUGUAGCUGAAUGUUACAUUUUUUUAAAAAUCUCUGUUCAAGCCAGAAGAGUUGAUUAUGAGUGGAAUUCUCGGGUGCCAA | 0.368 |
| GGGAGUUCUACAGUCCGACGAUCGAGAAAUAGCACUCUUCUCCCUUCCCCCAGAUGGCAGGGCUCUGGCCUCCCUACACCUCAUACCCUGCCUGCCUCCUCCAGGAGGAAUCUCCGGGGCCCCUUCCUGACUCUGGAAUUCUCGGGUGCCAA | 1.1 |
| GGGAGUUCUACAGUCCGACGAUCCUUUUUAACCUGGGCUUAGCCACCUGCUCUGUGAUCCAGGGCUUACCUUCUUUGGGCCUCGGCCUCCUAAUCUGGGUAAUGGGGAGGACUUCAUUGGCAUUGUUAGUCCCUGGAAUUCUCGGGUGCCAA | 0.425 |
| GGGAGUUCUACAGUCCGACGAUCGAUGUAUGAUAAAGAUGAUCUAAUUUGUGAAUGCAUAUGUGUGCGUGGUUACUUUUUAUAAUGUGAAAUGGAUAAUGAGCGUAUUUAAAAUAAAGCAGAGGUUAAUGAGAUGGAAUUCUCGGGUGCCAA | 2.43 |
| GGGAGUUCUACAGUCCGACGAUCUAUAAAUAUUAUAUAUUUUAUUUUUCAUACAUGUUUGAAUUGCGGAUCCAUGGAUGUUCCAUCUGUAGGACCAACUUGAUGUGCCCAUCCUGACAUUGUAUGCCACAAGAUGGAAUUCUCGGGUGCCAA | 0.761 |
| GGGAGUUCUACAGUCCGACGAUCUGUGCAGCCCUCUAGUCAAUCACCAGUCCGGGAGUCAGGUUGUACUGAGUAGCUGGCCACGGAGGCUUGCUCAUGGAGGUCUCCAUCCCCAACAUCCAGAGGCCAGAAGAUGGAAUUCUCGGGUGCCAA | 0.295 |
| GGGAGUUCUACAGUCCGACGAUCCAGGGGAGGAUGGUGGCCACGUACUAAGAUCUUGGCUCUCCAGCCCGUGUUUCCUAAGGACUCCGCAGACAAGGCUUUCACCUGCGUGUUCAUCUGUGGGUCAUCGAGGCUGGAAUUCUCGGGUGCCAA | 0.546 |
| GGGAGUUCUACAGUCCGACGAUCUGACAACCUGGCAUAAAGGAGUCAAUUCUUAUGAAAGAGACACAAGGGCCUUAUGGCCAGGGUUUCUUGGGACAAGACUCUCACCAGCACAUCACACACGUUCUCCUUGGUGGAAUUCUCGGGUGCCAA | 0.748 |
| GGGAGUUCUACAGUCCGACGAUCAACAUUGAGAUGUGUUUUUAAUGUUAAAAUAUUGAUUUCUACGUUAUGAAAACAGAUGCCCCCGUGAAUGCUUACCUGUGAGAUAACCACAACCAGGAAGAACAAAUCUGUGGAAUUCUCGGGUGCCAA | 0.712 |
| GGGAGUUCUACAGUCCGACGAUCUCUGUUGCUUCAGUAAAAGGACCUCGGGGAAUAAAACAUUUCUCUCUUAUAUGCCAGAAUGUAGGCUGGUCCCUAUGUCAUGUCUUCCAUUAAGAACACUAAAAAGUCCUUGGAAUUCUCGGGUGCCAA | 0.721 |
| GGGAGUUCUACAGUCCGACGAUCUCCUGUGUGGUUGCCCCGUGUCCUCUGGCCUAGGGUUAAGUGUGCAAGAUAACUACUCGUGAGUAUUCAGAAUGUUGUUCCUAAUAAAUGCACUUGUUGUCUGUCUUCUUUGGAAUUCUCGGGUGCCAA | 0.363 |
| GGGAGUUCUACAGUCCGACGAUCACAAUGACUAGCUGUUGCUCUCCAAGCUAAGGGACCAUUCCCUGUCUUAUGCAUAUACGUAAUGUCACCUAUUUAGGUAUCAUCCUAUUUGAGAGUUUGAGGAACUGAAAUGGAAUUCUCGGGUGCCAA | 0.993 |

Sample 2 — technique: RNAcompete; form: RNA; sample: in vitro; tested at: 20 nM; notes: 7-mer, probes averaged, single round; baseline: mean of 7-mers; direction: higher = stronger binding
Target: PABPC1L2, full length, GST fusion (mouse, UniProt A0ABA7IW68)
Target sequence (chain): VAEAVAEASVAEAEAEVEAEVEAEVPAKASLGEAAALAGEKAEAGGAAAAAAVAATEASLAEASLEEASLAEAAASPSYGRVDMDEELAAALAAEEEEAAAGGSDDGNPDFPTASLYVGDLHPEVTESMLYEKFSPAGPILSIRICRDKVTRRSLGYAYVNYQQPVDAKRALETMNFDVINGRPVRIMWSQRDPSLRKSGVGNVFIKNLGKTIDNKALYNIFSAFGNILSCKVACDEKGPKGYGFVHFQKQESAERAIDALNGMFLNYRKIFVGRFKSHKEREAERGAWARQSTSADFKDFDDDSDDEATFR
| Oligonucleotide | 7-mer Z-score |
| --- | --- |
| CAACACG | -0.0681 |
| UCUUUGU | -0.447 |
| CAUCCUU | -0.345 |
| UUUUAGU | -0.0935 |
| CCCAGCG | -0.197 |
| CAGUGAG | -0.101 |
| GAAUCGG | -0.0699 |
| CUUUGUA | -0.349 |
| GGUAGAG | 0.0587 |
| AGAGAUG | 0.0116 |
| CUGGCCG | -0.166 |
| AAAUCGC | 0.898 |
| AUUCCUC | -0.311 |
| AGUGAUA | -0.0591 |
| AGCCAGU | -0.284 |
| GAUACCC | -0.349 |

Sample 3 — technique: protein binding microarray; form: double-stranded DNA, one strand shown; sample: in vitro; tested at: not given; baseline: not given; direction: higher = stronger binding
Target: Histone acetyltransferase KAT6A, winged helix 2, GST fusion (KAT6A, Homo sapiens, UniProt Q92794, residues 85-181)
Notes: 8-mer, flanks averaged, mean of 2 arrays, mostly near background
Target sequence (chain): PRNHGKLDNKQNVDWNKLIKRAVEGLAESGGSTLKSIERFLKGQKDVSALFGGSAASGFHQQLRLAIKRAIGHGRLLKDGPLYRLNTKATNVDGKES
| Oligonucleotide | E-score |
| --- | --- |
| TATTACGA | -0.00019 |
| CACACTTC | -0.0247 |
| AGAGGTCC | 0.0489 |
| AACTCGTG | -0.13 |
| TCAACAAA | 0.0166 |
| ACTAGCTG | -0.0898 |
| ATGCTAGG | -0.149 |
| GCTAGAGC | 0.0495 |
| CCGGGATC | 0.17 |
| GCACGACA | -0.0481 |
| ACGTATCT | -0.194 |
| GAGCAACC | 0.0862 |
| ACGAAATC | 0.0672 |
| CATTACCC | -0.243 |
| CGCAACCC | 0.111 |
| AAAACCCG | -0.0278 |

Sample 4 — technique: protein-binding microarray; form: double-stranded DNA, one strand shown; sample: in vitro; tested at: 2540 nM top; notes: 60-bp whole probe; with: salmon DNA 0.4 mg/ml; baseline: random background probes; direction: higher = stronger binding; all sequences stand within: GCCTAGCAC … GTCTTGATTCGCTTGACGCTGCTG
Target: Interferon regulatory factor 3, full length, phosphomimetic (IRF3, Homo sapiens, UniProt Q14653, residues 1-427, S386D/S396D/S398D/S402D/T404D/S405D)
Residues (chain): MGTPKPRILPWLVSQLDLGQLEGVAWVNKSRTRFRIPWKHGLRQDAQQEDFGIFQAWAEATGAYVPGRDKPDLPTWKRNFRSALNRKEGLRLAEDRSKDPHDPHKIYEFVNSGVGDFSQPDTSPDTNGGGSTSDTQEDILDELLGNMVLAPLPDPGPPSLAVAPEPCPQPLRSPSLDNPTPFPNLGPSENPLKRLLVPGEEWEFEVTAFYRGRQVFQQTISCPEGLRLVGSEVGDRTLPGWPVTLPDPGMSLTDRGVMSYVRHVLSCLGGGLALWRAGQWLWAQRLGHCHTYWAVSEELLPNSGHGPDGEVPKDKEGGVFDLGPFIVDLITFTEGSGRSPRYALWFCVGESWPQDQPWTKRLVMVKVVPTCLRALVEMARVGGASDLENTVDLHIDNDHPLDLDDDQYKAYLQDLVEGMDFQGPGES
| Oligonucleotide | fitted relative affinity |
| --- | --- |
| GACGGTATCGGTTTCGGAACGTGCTAG | 8.23 z-score |
| GATGGACTGGGACTGGGGACGTGCTAG | -1.13 z-score |
| CCCATTCCAGGGTTTTATGGAGTGCTA | 1.22 z-score |
| AAAATTTTGCTTCTAGAACAGTGCTAG | 1.01 z-score |
| TTAGGTTTCCTTCTCCATTAGTGCTAG | 10.2 z-score |
| TCTGCTTTGCCTTCAGCCCGGTGCTAG | -0.615 z-score |
| TTAGTTATCAGTTTCGATTAGTGCTAG | 5.35 z-score |
| CCCACCATCTAGTTCTGCTTGTGCTAG | 0.464 z-score |
| GACGTACTGAGACTGGAGACGTGCTAG | -0.16 z-score |
| TTAGAACTGGGGTTTCGCTTAGTGCTA | 0.95 z-score |
| TCCCTTCAACAGTGCTGGCTGTGCTAG | 0.92 z-score |
| GACGGACTGGGTTTCGGGGCGTGCTAG | 0.438 z-score |
| GGCAGGAATAAAGGAGCAGCGTGCTAG | -0.832 z-score |
| TTAGGACCGGACTATCGGTTAGTGCTA | 0.258 z-score |
| TCAACTCTCTGGGCTGTGACTGTGCTA | -0.142 z-score |
| TCACTTCTCCTCTAGGTTACTGTGCTA | 1.92 z-score |
| TTAGGTTTCGACTACCGGTTAGTGCTA | 2.01 z-score |
| GTGAATATATGTATATATGTGTGCTAG | -0.0273 z-score |
| TCACTTTTCTGTTGTCTGACTGTGCTA | 2.09 z-score |
| GACGGTATCGGTCTCGGGAAGTGCTAG | 4.57 z-score |
| GACGATATCAGACTGGAGGCGTGCTAG | 0.146 z-score |
| GAAGAACTGAGACTGGAGACGTGCTAG | -0.49 z-score |
| GACGGTTTCGACACTGGGGGCGTGCTA | 3.41 z-score |
| GACGGTCTCGGACTGTGGACGTGCTAG | 0.045 z-score |
| TTAAATTTCAGTCTCGATTAGTGCTAG | 2.57 z-score |

Sample 5 — technique: universal PBM; form: double-stranded DNA, one strand shown; sample: in vitro; tested at: 600 nM; direction: higher = stronger binding
Target: Sal-like protein 4, full length isoform A (SALL4, Homo sapiens, UniProt Q9UJQ4, residues 1-1053)
Sequence of UniProt Q9UJQ4 (whole entry, looked up): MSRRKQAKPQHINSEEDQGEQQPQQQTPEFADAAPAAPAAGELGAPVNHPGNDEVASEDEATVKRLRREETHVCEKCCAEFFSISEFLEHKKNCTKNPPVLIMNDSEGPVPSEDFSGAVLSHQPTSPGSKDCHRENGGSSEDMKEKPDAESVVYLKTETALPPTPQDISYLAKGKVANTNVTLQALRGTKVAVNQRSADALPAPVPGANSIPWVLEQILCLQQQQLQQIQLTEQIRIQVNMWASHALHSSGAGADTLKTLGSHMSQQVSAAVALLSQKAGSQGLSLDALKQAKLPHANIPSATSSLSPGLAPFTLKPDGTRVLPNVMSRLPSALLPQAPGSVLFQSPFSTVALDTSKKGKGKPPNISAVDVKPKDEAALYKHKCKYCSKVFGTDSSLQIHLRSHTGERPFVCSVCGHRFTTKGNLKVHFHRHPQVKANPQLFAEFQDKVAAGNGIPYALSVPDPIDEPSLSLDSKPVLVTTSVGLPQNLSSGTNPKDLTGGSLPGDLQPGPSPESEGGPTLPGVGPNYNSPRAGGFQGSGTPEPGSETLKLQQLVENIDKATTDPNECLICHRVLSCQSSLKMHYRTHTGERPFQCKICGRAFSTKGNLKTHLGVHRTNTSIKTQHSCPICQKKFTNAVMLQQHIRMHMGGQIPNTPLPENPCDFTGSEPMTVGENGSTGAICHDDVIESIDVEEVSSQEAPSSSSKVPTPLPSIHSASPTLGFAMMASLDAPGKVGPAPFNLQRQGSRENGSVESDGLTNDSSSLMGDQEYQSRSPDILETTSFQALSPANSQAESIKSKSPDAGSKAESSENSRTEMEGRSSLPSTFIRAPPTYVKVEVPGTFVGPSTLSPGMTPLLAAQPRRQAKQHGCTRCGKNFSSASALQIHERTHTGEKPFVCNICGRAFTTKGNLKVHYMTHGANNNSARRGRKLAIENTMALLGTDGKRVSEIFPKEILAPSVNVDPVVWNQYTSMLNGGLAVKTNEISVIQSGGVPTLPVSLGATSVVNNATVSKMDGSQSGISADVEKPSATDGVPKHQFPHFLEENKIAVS
Notes: 8-mer, flanks averaged, mean of replicates
| Oligonucleotide | E-score |
| --- | --- |
| ACGCCACA | -0.048 |
| GAGTAACA | 0.154 |
| AAACATCG | -0.0426 |
| CGTAGACC | -0.203 |
| AGTTGGAG | -0.0469 |
| CCCTTATC | -0.0332 |
| CGAGTTTC | -0.0109 |
| AGAGGCGA | -0.151 |
| ACGGTTAA | 0.178 |
| CGGCGTGA | -0.253 |
| ACGCACCG | -0.285 |
| AGGTTATC | 0.101 |
| CCCACGGG | -0.352 |
| GGCGACCC | -0.361 |
| CTGACAAG | 0.147 |
| GGGCCATA | -0.106 |
| GCAAGGAA | -0.168 |
| CAACGACG | -0.133 |
| AACGAGAT | 0.0704 |
| GTTCTTCA | -0.00276 |
| AGTGCTTC | -0.0467 |
| CAATGCGC | -0.00828 |
| CGTCCCAG | -0.221 |
| CGAAAGCA | -0.0219 |
